# Assay results of several laboratories.
# Compare with care: the assays were run in different laboratories. Values joined by “and” are separate records of one study, mostly repeats; a detail may differ.
# Cell line: M14
Compound,test,conditions,how to read,endpoint,value
C#C[C@@]1(O)[C@@H](CO)O[C@@H](n2cc(F)c3c(N)ncnc32)[C@@H]1O,SRB,NCI-60 screen,,TGI,2.39 µM
COc1ccc(OC)c(-c2nc3ccc(-c4nc5ccc(N6CCN(C)CC6)cc5[nH]4)cc3[nH]2)c1,SRB,"10 µM, 48 h",,growth percent,102%
C#C[C@@]1(O)[C@@H](CO)O[C@@H](n2cc(I)c3c(N)ncnc32)[C@@H]1O,SRB,NCI-60 screen,,TGI,8.47 µM and 10.7 µM
CCCCN1CCN(c2ccc3[nH]c(-c4ccc5[nH]c(-c6ccc(OCC)c(OCC)c6)nc5c4)nc3c2)CC1,SRB,"10 µM, 48 h",,growth percent,-28%
O=C(Nc1nnc2n3c(Cc4ccccc4)n[nH]c3nc(-c3ccc(Cl)cc3)c1-2)c1ccccc1,SRB,"10 µM, NCI60 single-dose screen",reference: untreated,cell growth,99.6%
CCCCN1CCN(c2ccc3nc(-c4ccc5nc(-c6cc(OC)ccc6OC)[nH]c5c4)[nH]c3c2)CC1,SRB,"10 µM, 48 h",,growth percent,112%
Cc1cc(-c2ccccc2)n(-c2nc(-c3ccc(Cl)cc3)c3c(NC(=O)c4ccccc4)nnc-3[nH]2)n1,SRB,"10 µM, NCI60 single-dose screen",reference: untreated,cell growth,103%
S=C([S][Au-][P+](CCCCCC[P+]([Au-][S]C(=S)n1cccn1)(c1ccccc1)c1ccccc1)(c1ccccc1)c1ccccc1)n1cccn1,"cell growth, NCI-60 screen",melanoma,,log TGI,> -4 log10 M
C#C[C@@]1(O)[C@@H](CO)O[C@@H](n2cc(Cl)c3c(N)ncnc32)[C@@H]1O,SRB,NCI-60 screen,,TGI,0.659 µM and 0.52 µM
CCOC(=O)CSc1nc(-c2ccc(Cl)cc2)c2c(NC(=O)c3ccccc3)nnc-2[nH]1,SRB,"10 µM, NCI60 single-dose screen",reference: untreated,cell growth,98.3%
CCN(CC)c1ccc(C=NNC(=O)CSc2nc3ccccc3c(=O)n2Cc2ccc(S(N)(=O)=O)cc2)c(O)c1,NCI five-dose screen,,,TGI,10.9 µM
O=C(Nc1nnc2n3c(=S)[nH][nH]c3nc(-c3ccc(Cl)cc3)c1-2)c1ccccc1,SRB,"10 µM, NCI60 single-dose screen",reference: untreated,cell growth,107%
CCCCN1CCN(c2ccc3[nH]c(-c4ccc5[nH]c(-c6ccc(OCC)cc6)nc5c4)nc3c2)CC1,SRB,"10 µM, 48 h",,growth percent,32.7%
CSc1nc(-c2ccc(Cl)cc2)c2c(NC(=O)c3ccccc3)nnc-2[nH]1,SRB,"10 µM, NCI60 single-dose screen",reference: untreated,cell growth,96.8%
CCCN1CCN(c2ccc3[nH]c(-c4ccc5[nH]c(-c6ccc(C(F)(F)F)cc6)nc5c4)nc3c2)CC1,SRB,"10 µM, 48 h",,growth percent,-59%
Cn1cncc1C1=CN(c2ncnc3[nH]cnc23)CCS1,,melanoma cell line,,TGI,49 µM

# Some of these lines once more:
Compound,test,conditions,how to read,endpoint,value
C#C[C@@]1(O)[C@@H](CO)O[C@@H](n2cc(I)c3c(N)ncnc32)[C@@H]1O,SRB,NCI-60 screen,,TGI,8.47 µM and 10.7 µM
CCOC(=O)CSc1nc(-c2ccc(Cl)cc2)c2c(NC(=O)c3ccccc3)nnc-2[nH]1,SRB,"10 µM, NCI60 single-dose screen",reference: untreated,cell growth,98.3%
